Results from different studies.
A part holds a random share of what one study measured.

Sample 1
Target: RNA binding protein fox-1 homolog 2, RRM domain, GST-SBP tag (RBFOX2, Homo sapiens, UniProt O43251-10, residues 100-194)
Method: RNA Bind-n-Seq
Form: RNA
Medium: in vitro
Concentration: 365 nM
Setting: natural RNA segment, single round, ends assumed
Relative to: no-protein control
Direction: higher = stronger binding
Target sequence (chain): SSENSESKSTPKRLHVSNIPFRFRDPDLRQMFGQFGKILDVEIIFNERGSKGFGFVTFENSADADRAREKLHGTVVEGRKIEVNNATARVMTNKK
| Sequence | RBNS enrichment (R) |
| --- | --- |
| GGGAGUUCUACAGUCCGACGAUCGUUUUGAGUAAACUCAGUAUGCAUGUGUGAAUGCUGAAUCACAGGAAUGGUGUUGAGGCUACCAAGAAGAAAUCCAUGCAGCCACUUUGGGUUUUGUUAUAGGCAUCAGUUGGAAUUCUCGGGUGCCAA | 25.6 |
| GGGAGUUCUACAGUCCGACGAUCAGGGUGCCUGACCUGUGUGCCGGCUGCUCACUGCUGUGACCAGCAGCCGAGCCCUUGGCCCUAGCCCUUGCUGCGCAGAACAGCUUGCUGGCAGCUGGCAUCGUGUCGCUUGGAAUUCUCGGGUGCCAA | 0.408 |
| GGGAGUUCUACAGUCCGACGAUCAAAUUCCAGCACCAAGUGUUGUGGCAACAGCUGAGAGAGUGCAGGCACCACUGUGUUGUGGCUUGUUGACCGGGAAUGUGUCACCCCUGCCAGGGAACUCUUCUCCUCGCUGGAAUUCUCGGGUGCCAA | 0.496 |
| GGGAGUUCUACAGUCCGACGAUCGUCUCUGGCACCAAAUAACCCAGCAGACAUGAGCCUUGCCUUCUGAGAUUUUAGAAUCUAAGAUAGCACGAGUGGGUAUAGAAGAUGGAAGAUACCGAUAAAUAACAUGGUGGAAUUCUCGGGUGCCAA | 0.443 |
| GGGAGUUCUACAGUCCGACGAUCCUGACCUCCAUUGCUUACCUGCCUGAGUAGCCAGCUGCAUCCAUCUCUCAAAGAUACCUAGCCAGGCUCCUAACCAUGUUCUUCAACCAUUGAUUUUGUUUGAUUUCUGAUGGAAUUCUCGGGUGCCAA | 4.04 |
| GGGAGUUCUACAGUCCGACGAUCCAUGUGGCAACCUUUACUUCUAUGCCUCACAAGUGCCUUUCAGAGAGCCCCAAUUCUGCUUUCCCACAAAAUAAACCUAAUGCCAUCAGGCAAAACAUUUCUGUGUCUGUUGGAAUUCUCGGGUGCCAA | 0.63 |
| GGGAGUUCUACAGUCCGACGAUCCAUGGAGAUCAAAGAAAUAGCAAGCAGGACCCGCAGGGAACUACUGGGCCUCUCGGAUGAAGGUGGACCCAAGUCAGAAGGAGCGCCAAAGGCCAAAUCAAAACCCCGGAUGGAAUUCUCGGGUGCCAA | 0.341 |
| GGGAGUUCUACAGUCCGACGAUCAUUUGGGGGGGAGGAUGGGGAAAAGAGCUGAGAGUUUAUGCUGAAAUGGAUUUAUAGAAUAUUUGUAAAUCUAUUUUUAGUGUUUGUUCGUUUUUUUAACUGUUCAUUCCUGGAAUUCUCGGGUGCCAA | 0.587 |

Sample 2
Target: Centromere-binding protein 1, full length, His-tagged (CBF1, Saccharomyces cerevisiae, UniProt P17106, residues 1-351)
Sequence of UniProt P17106 (whole entry, looked up): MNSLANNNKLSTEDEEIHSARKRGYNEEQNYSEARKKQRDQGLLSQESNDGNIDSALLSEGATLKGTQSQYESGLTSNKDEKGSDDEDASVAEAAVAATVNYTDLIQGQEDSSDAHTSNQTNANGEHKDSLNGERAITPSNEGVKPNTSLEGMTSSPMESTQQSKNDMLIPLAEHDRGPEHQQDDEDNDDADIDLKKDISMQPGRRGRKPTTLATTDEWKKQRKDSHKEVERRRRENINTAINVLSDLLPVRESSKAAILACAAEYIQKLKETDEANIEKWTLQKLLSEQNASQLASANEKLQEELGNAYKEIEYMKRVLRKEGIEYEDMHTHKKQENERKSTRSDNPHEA
Method: competition protein-binding microarray
Form: double-stranded DNA, one strand shown
Medium: in vitro
Concentration: 2 µM
Setting: whole 60-bp probe, lowest competitor level
Added: Pho4 competitor, 0.05 µM
Direction: higher = stronger binding
| Sequence | fluorescence intensity [a.u.] |
| --- | --- |
| GTTTCAGCGAAGTCGCACGTGAAGGATAGCAGTGGCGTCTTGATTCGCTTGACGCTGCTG | 700 |
| AGGCCAATGCTGCTAAGCGTGCTAAAGCCAAGGCCCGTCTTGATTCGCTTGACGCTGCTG | 54.9 |
| CTATGAAGACAACATCACCTGGAATGACATCTGGGGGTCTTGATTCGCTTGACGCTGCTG | 83.9 |
| GTCTTGTCTCATTGGGCTGTGGGTGTCCCCACTTCAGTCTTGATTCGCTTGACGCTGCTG | 84.2 |
| GCTGCAAGATTAGTCTATGTGACGGTGCCTTTTTTGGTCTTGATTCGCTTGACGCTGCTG | 79.5 |
| ATTCACTAAGAGGCAAACATGACAACGCGGGCTCCAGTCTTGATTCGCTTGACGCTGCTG | 64.1 |
| CGCGATTATGGGCCGCTCGTGACGGTAAAGGAAGCAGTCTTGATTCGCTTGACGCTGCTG | 193 |
| CGATAGGTATAGGATCAGGCTTCACACTTAGTGTTTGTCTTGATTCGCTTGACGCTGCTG | 75.2 |

Further values, each from its own experiment
| Molecule | tested on | test | test system | conditions | scale | measurement | value |
| --- | --- | --- | --- | --- | --- | --- | --- |
| POLR3A (Homo sapiens, UniProt O14802) | POLR3B (Homo sapiens, UniProt Q9NW08) | cross-linking MS | – | hits only | – | interaction screen | cross-linked |
| AAAVRKPIVLKR | Saccharomyces cerevisiae | peptide binding, yeast competitive growth sequencing | peptide, cyclin-Cln2 fusion strain | concentration not given, Cln2 background subtracted | direction not given | binding score | -0.459 |
| CDH2 (Homo sapiens, UniProt P19022) | CTNNB1 (Homo sapiens, UniProt P35222) | cross-linking MS | – | hits only | – | interaction screen | cross-linked |
| RRHWGGNVL | HLA class I histocompatibility antigen, C alpha chain, allele C*04:01 (Homo sapiens, UniProt P10321) | peptide-MHC binding | peptide | concentration not given | – | binding | inactive |
| HNRNPR (Homo sapiens, UniProt O43390) | HNRNPA1 (Homo sapiens, UniProt P09651) | cross-linking MS | – | hits only | – | interaction screen | cross-linked |
| CLTB (Homo sapiens, UniProt P09497) | CLTC (Homo sapiens, UniProt Q00610) | cross-linking MS | cell fractions | added: DHSO | – | cross-linked residues | E148 to E1503 |

Repeated from above (sample 1):
| Sequence | RBNS enrichment (R) |
| --- | --- |
| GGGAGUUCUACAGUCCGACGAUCCAUGUGGCAACCUUUACUUCUAUGCCUCACAAGUGCCUUUCAGAGAGCCCCAAUUCUGCUUUCCCACAAAAUAAACCUAAUGCCAUCAGGCAAAACAUUUCUGUGUCUGUUGGAAUUCUCGGGUGCCAA | 0.63 |
| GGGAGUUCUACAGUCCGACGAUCCAUGGAGAUCAAAGAAAUAGCAAGCAGGACCCGCAGGGAACUACUGGGCCUCUCGGAUGAAGGUGGACCCAAGUCAGAAGGAGCGCCAAAGGCCAAAUCAAAACCCCGGAUGGAAUUCUCGGGUGCCAA | 0.341 |
| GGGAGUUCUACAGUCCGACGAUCAUUUGGGGGGGAGGAUGGGGAAAAGAGCUGAGAGUUUAUGCUGAAAUGGAUUUAUAGAAUAUUUGUAAAUCUAUUUUUAGUGUUUGUUCGUUUUUUUAACUGUUCAUUCCUGGAAUUCUCGGGUGCCAA | 0.587 |
